{"data": "Experimental data gathered from unrelated publications", "note": "Each numbered part is a random draw from the data of one study; scales do not carry over between parts. Substitutions count along the parent as printed."}
{"data": "Block 1", "target": "ABI1, truncated, D143A, DHFR fusion (Arabidopsis thaliana, UniProt P49597)", "method": "DHFR PCA, dose-response", "sample": "yeast", "setting": "Hill fit, mean, not affinity", "together with": "(+)-ABA, dose series", "direction": "lower = more sensitive", "starting sequence": "PYL1, truncated, DHFR fusion (Arabidopsis thaliana, UniProt Q8VZS8); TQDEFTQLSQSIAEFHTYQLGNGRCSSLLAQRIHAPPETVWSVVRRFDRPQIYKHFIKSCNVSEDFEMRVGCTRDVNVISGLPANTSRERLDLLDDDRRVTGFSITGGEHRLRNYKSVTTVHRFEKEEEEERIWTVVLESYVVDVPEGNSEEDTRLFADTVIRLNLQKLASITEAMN"}
{"Substitution": "R132Y", "ABA EC50 [µM]": 1.95}
{"Substitution": "N77W", "ABA EC50 [µM]": 4.03}
{"Substitution": "K116C", "ABA EC50 [µM]": 26}
{"Substitution": "L29F", "ABA EC50 [µM]": 99.4}
{"Substitution": "A175P", "ABA EC50 [µM]": 11}
{"Substitution": "T6V", "ABA EC50 [µM]": 3.1}
{"Substitution": "Q31W", "ABA EC50 [µM]": 33.7}
{"Substitution": "S11P", "ABA EC50 [µM]": 5.56}
{"Substitution": "R155V", "ABA EC50 [µM]": 3.06}
{"Substitution": "P37E", "ABA EC50 [µM]": 15.2}
{"Substitution": "E130M", "ABA EC50 [µM]": 3.23}
{"Substitution": "T1R", "ABA EC50 [µM]": 2.08}
{"Substitution": "Q2S", "ABA EC50 [µM]": 1.92}
{"data": "Block 2", "target": "CCNA1, cyclin fold, Cln2 fusion (human)", "method": "yeast growth competition, sequencing", "sample": "yeast", "setting": "weak parent motif", "baseline": "not given", "direction": "higher = stronger binding", "starting sequence": "HASPIN docking peptide (human); ASLRSVLFGLMNS"}
{"Substitution": "F8A", "normalised enrichment score": -0.563}
{"Substitution": "M11A", "normalised enrichment score": 0.252}
{"Substitution": "L10A", "normalised enrichment score": -0.181}
{"Substitution": "L7A", "normalised enrichment score": 0.357}
{"Substitution": "L3A", "normalised enrichment score": -0.0974}
{"Substitution": "V6A", "normalised enrichment score": -0.226}
{"data": "Block 3", "target": "RNA binding protein fox-1 homolog 2, RRM domain, GST-SBP tag (RBFOX2, Homo sapiens, UniProt O43251-10, residues 100-194)", "method": "RNA Bind-n-Seq", "form": "RNA", "sample": "in vitro", "tested at": "365 nM", "setting": "natural RNA segment, single round, ends assumed", "baseline": "no-protein control", "direction": "higher = stronger binding", "constant ends, left off below": "GGGAGUUCUACAGUCCGACGAUC … UGGAAUUCUCGGGUGCCAA", "Target sequence (chain)": "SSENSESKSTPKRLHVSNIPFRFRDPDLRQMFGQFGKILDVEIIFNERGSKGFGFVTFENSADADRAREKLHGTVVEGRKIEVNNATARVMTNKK"}
{"Sequence": "UGGGGAUAAUCUAUAUUAUAUUGACUUCCUAUUACUUAUUAUAAACCUGUGUUUGUAUUGGAGAUGUGUCUACUAUUGGGGGAAGAGGUUCUCGUAAUCGCUCGGUGGGA", "RBNS enrichment (R)": 0.669}
{"Sequence": "AUGACGCCACUCUGAAGAGUAGGUGAGCGCUUUGCAGUCACAGAAGGUGGCAUCUGACUGCGGCUCAUACAGGUCACCCUGAAGGGCCACGUGCUUUUAGCAGUUGGCUG", "RBNS enrichment (R)": 0.288}
{"Sequence": "UGAGAAUGUGACCUUUAAGAAAAAUGAAAACUUUUGUAAAUUAUUGAUGAUUUUGUAAUUCUUAUGACUAAAUUUUCUUUUAAGCAUUUGUAUAUUAAAAUAGCAUACUG", "RBNS enrichment (R)": 1.11}
{"Sequence": "AAUAUCCUUUCUCAUGGAAGUGCAUACCUGCGUGUGGAGAAGCUGAGGAGUGAAAACCAUGCAAGUAGAUGCUUACUGCCUUGACAUGGGAAUUACGGUUAUGACAGAAC", "RBNS enrichment (R)": 0.275}
{"Sequence": "AGUCCCAGCUACUUGGGAGGCUGAGGUAGGAGAAUUGCUUGAACCUGGGAGGCGGAGGUUGCGGUGAGCUGAGAUCACGCCACUACACUCCAGCCUGGUGACAGAGCAAG", "RBNS enrichment (R)": 0.426}
{"Sequence": "UUGUUUGUUUCAUCUUUUUCAGUUGAAUAUUAAUACUAAUGGCCACGUCUGACAAAUGUGUGUAUGUGCUUUGAGCACUGUGUACAUCUUAGGAUAAUGGUGGACAUUUC", "RBNS enrichment (R)": 0.25}
{"Sequence": "CUGGAUGUUUUGCUCUGUUUUGGUACCUGUAAUAUAGGGAAACACAACUUUUUUUGGGAAAGCCCUUUGACCCCAGCUUGCUAGUUGCAUAAUAAUAAAUUUUCUGUUCC", "RBNS enrichment (R)": 0.834}
{"Sequence": "AGGUGGAUGGAGAGACAUUUGAUCCCUUGUUUGCUUAAUAAAUUAUAAAAUGAUGGCUUGGAAAAGCAGGCUAGUCUAACCAUGGUGCUAUUAUUAGGCUUGCUUGUUAC", "RBNS enrichment (R)": 2.16}
{"Sequence": "UUACUUGUGAAAAUGGCCAUCUUUAAGCAUAUUUAUUUUCUGCCACUUUAUUUAAAGGCAAGCAAUAUUUUCUUGAUCAUAAAUAUUUUGUAAUGAAAUACUUCCUCUUU", "RBNS enrichment (R)": 0.425}
{"Sequence": "AACAGAAAUUACAUGAGGAAUAUUCCGGCUAGAUUAGGCGCCUGUGGAUAUUGGAGUUGGGUUGAUUUUCCUGAAUUGGUUCCUAUAGGAUCCUCCAAUUUUGGAUCUUC", "RBNS enrichment (R)": 0.432}
{"Sequence": "UUUCCAAGUUAUAAAGUCUACUGCAGCAUUCAUGUGUAGCGGGGAAGCCUACGUAAGCAAACGACUACAGCUCCUUCCCCCCAGGACUUGCACUUGCACUAGAGCAGCCG", "RBNS enrichment (R)": 0.605}
{"Sequence": "GAACGGCAGCCCAGCCGUGGGACGGACGUGGACGUUUACUGCAUUCCUGUUUGCCGUGUAAAUGUUAGAAAGGAAUUAAAGUUAUUACUCGGAAUAAAGGAUGACUUUGG", "RBNS enrichment (R)": 0.653}
{"data": "Block 4", "target": "CREB5, bZIP domain (human)", "method": "DHFR protein complementation", "sample": "yeast", "setting": "single substitutions, most at no-binding floor", "baseline": "wild-type JUN-FOS pair", "direction": "higher = stronger binding", "starting sequence": "JUN, bZIP domain (human); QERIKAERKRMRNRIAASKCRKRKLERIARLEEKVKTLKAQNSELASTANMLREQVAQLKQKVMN; partner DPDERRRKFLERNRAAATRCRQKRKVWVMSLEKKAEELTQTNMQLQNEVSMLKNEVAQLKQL"}
{"Substitution": "S47E", "binding fitness": "-0.124 natural log"}
{"Substitution": "R53V", "binding fitness": "-1.26 natural log"}
{"Substitution": "S47L", "binding fitness": "-0.35 natural log"}
{"Substitution": "N42S", "binding fitness": "-0.965 natural log"}
{"Substitution": "L52V", "binding fitness": "-1.37 natural log"}
{"Substitution": "A57E", "binding fitness": "-0.212 natural log"}
{"Substitution": "N42H", "binding fitness": "-0.522 natural log"}
{"Substitution": "N42P", "binding fitness": "-1.38 natural log"}
{"Substitution": "Q55K", "binding fitness": "-0.406 natural log"}
{"Substitution": "K39P", "binding fitness": "-1.34 natural log"}
{"Substitution": "M51P", "binding fitness": "-1.4 natural log"}
{"Substitution": "L38D", "binding fitness": "-1.52 natural log"}
{"Substitution": "L31E", "binding fitness": "-1.18 natural log"}
{"note": "Some of these lines once more (block 3):"}
{"Sequence": "UUACUUGUGAAAAUGGCCAUCUUUAAGCAUAUUUAUUUUCUGCCACUUUAUUUAAAGGCAAGCAAUAUUUUCUUGAUCAUAAAUAUUUUGUAAUGAAAUACUUCCUCUUU", "RBNS enrichment (R)": 0.425}
{"Sequence": "UGGGGAUAAUCUAUAUUAUAUUGACUUCCUAUUACUUAUUAUAAACCUGUGUUUGUAUUGGAGAUGUGUCUACUAUUGGGGGAAGAGGUUCUCGUAAUCGCUCGGUGGGA", "RBNS enrichment (R)": 0.669}
{"Sequence": "UUGUUUGUUUCAUCUUUUUCAGUUGAAUAUUAAUACUAAUGGCCACGUCUGACAAAUGUGUGUAUGUGCUUUGAGCACUGUGUACAUCUUAGGAUAAUGGUGGACAUUUC", "RBNS enrichment (R)": 0.25}
